# Experimental data gathered from unrelated publications.
# ± gives the spread as reported.
# PFF0160c E182D: Dihydroorotate dehydrogenase (quinone), mitochondrial (PFF0160c, Plasmodium falciparum, UniProt Q08210, E182D)
# ACHE: Acetylcholinesterase (ACHE, Homo sapiens, UniProt P22303)
# UniProt Q62351, sequence (whole entry, looked up): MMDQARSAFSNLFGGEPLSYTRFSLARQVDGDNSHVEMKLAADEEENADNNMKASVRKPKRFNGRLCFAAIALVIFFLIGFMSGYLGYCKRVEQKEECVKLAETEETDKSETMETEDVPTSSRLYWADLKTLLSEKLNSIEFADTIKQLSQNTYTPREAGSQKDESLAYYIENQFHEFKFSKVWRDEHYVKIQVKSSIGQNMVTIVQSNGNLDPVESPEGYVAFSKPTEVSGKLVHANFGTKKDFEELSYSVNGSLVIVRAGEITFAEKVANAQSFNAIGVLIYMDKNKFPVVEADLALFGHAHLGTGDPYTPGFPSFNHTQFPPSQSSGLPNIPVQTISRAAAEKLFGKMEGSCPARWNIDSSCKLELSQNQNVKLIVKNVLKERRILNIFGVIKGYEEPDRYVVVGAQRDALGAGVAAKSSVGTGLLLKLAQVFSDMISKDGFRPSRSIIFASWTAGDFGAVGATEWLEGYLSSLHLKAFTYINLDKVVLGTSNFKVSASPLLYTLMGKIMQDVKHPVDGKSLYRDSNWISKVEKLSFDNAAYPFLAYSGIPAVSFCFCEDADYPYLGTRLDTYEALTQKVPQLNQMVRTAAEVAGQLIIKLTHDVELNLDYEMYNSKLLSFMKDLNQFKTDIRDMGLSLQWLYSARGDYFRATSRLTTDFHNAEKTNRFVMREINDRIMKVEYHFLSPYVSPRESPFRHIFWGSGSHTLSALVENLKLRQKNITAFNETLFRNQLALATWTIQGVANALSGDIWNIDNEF
# UniProt P22303, sequence (whole entry, looked up): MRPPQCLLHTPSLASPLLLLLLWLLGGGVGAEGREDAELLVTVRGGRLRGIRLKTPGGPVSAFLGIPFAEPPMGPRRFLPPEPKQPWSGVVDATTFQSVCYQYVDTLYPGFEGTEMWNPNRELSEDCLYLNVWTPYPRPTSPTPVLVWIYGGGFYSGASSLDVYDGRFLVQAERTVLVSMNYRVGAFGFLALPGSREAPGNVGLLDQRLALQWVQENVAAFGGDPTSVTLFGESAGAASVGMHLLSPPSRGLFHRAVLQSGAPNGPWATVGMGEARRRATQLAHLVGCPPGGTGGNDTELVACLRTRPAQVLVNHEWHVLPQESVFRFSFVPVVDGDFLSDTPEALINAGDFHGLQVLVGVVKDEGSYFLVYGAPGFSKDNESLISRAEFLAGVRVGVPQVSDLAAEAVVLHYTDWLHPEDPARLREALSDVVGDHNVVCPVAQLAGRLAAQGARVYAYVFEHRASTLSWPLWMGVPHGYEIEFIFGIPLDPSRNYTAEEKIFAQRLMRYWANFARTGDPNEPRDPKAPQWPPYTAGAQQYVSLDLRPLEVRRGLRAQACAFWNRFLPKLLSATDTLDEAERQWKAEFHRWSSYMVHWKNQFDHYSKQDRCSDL
# UniProt P08581, sequence (whole entry, looked up): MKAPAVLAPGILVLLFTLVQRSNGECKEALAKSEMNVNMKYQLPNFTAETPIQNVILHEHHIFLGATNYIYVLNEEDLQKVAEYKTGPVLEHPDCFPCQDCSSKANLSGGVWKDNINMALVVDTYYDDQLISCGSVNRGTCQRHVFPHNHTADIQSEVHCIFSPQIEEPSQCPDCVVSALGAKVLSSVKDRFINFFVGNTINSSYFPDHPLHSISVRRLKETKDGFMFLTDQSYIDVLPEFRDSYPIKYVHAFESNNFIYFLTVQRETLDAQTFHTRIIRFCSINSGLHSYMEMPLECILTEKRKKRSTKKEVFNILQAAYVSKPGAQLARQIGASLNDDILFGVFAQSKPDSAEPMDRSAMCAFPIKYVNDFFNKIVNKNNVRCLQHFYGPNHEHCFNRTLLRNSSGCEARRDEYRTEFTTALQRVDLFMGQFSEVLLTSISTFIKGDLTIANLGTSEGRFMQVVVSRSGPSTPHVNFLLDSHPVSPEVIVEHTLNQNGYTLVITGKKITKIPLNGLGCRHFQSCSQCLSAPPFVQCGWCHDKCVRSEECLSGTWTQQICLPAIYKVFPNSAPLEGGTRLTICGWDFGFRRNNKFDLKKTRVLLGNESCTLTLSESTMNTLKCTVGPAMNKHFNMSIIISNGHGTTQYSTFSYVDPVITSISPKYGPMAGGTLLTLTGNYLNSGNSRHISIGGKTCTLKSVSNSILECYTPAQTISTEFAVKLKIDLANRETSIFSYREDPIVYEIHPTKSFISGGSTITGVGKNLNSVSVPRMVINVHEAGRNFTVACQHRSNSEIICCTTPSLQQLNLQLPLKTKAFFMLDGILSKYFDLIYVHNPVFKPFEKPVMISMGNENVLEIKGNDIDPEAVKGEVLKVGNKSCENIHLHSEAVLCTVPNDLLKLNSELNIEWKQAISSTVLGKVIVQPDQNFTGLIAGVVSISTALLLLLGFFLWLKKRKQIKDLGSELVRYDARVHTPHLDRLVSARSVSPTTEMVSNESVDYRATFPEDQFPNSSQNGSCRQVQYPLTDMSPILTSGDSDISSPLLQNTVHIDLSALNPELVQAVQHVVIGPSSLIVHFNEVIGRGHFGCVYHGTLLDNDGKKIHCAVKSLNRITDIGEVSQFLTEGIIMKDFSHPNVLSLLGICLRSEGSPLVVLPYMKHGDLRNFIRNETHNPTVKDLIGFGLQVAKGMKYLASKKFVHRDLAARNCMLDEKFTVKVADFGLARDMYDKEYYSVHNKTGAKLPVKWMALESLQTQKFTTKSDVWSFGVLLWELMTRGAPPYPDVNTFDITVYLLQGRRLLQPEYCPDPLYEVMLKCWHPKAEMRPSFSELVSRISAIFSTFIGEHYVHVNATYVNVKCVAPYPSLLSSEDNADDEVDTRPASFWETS
# UniProt P07711, sequence (whole entry, looked up): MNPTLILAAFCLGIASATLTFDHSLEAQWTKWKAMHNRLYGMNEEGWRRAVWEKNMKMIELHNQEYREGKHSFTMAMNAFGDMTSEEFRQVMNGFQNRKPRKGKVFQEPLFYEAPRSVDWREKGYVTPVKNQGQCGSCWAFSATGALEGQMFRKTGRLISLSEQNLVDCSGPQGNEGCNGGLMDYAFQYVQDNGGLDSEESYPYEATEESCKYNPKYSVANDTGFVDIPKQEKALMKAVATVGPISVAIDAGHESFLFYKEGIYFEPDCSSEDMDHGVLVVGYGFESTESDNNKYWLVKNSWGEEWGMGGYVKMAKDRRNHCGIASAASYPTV
# UniProt O95881, sequence (whole entry, looked up): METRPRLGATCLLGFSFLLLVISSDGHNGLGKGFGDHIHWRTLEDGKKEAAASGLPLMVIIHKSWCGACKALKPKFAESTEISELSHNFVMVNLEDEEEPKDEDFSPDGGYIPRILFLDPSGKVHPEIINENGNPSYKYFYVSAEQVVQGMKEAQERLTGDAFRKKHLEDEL
# UniProt Q8NFJ6, sequence (whole entry, looked up): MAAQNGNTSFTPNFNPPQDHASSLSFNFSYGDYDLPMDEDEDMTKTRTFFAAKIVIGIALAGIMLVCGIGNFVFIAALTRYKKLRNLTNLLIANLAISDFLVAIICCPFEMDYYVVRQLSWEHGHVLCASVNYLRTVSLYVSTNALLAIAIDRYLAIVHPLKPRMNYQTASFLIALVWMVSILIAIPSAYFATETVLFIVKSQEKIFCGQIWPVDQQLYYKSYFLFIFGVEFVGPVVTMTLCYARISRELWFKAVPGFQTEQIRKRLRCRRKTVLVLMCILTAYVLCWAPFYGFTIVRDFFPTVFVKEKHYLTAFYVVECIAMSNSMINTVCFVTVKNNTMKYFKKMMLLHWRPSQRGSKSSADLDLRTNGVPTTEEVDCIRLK
# UniProt O43293, sequence (whole entry, looked up): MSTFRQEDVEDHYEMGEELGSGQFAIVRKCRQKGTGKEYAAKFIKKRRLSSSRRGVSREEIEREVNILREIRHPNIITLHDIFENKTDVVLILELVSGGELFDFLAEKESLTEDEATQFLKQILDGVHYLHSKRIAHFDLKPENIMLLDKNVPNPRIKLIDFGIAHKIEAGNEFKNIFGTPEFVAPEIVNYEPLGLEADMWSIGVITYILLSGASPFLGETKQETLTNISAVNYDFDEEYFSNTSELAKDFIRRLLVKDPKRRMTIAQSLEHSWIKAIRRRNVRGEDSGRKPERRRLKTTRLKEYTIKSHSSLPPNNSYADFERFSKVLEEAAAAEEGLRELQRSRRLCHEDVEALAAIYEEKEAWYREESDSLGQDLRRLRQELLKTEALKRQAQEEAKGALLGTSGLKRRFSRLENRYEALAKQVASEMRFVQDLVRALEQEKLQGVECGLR
# UniProt Q16288, sequence (whole entry, looked up): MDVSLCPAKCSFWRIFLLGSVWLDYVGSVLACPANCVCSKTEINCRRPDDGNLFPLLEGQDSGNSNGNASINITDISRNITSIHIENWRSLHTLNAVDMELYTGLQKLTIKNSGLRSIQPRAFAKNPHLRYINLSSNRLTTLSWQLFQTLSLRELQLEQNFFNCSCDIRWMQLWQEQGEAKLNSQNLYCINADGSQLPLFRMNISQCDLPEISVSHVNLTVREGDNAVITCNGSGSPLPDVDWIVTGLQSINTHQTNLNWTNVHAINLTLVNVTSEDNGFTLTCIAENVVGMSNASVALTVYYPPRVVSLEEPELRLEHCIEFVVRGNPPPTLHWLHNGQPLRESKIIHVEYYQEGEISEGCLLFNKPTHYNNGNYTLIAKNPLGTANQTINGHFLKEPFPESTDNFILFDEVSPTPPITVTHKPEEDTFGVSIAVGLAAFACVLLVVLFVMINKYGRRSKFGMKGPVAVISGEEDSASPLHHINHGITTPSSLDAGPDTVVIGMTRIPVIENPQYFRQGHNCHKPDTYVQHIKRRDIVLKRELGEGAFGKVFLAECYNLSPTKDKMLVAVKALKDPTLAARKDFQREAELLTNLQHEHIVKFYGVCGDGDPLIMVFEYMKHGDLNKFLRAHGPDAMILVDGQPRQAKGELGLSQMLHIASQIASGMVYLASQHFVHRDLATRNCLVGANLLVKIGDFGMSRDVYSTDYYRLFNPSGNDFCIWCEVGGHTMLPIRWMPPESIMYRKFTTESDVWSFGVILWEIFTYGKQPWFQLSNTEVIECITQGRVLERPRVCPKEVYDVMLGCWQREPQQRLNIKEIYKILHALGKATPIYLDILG
SMILES,target,assay,system,conditions,how to read,endpoint,result
Cc1cc(Nc2ccc(C(C)(C)C)cc2)c2[nH]ncc2n1.Cl,PFF0160c E182D,"enzyme activity, DCIP colorimetric",,,relative to: E182D mutant over wild type,IC50 ratio,2.5
CC[C@H]1NC(=O)[C@@H]2CSC(=N2)[C@@H](Cc2ccccc2)N(C)C(=O)[C@@H]2CCCN2C(=O)[C@H](C(C)C)N(C)C(=O)[C@H](Cc2ccccc2)OC(=O)[C@H](C)[C@@H](C)NC(=O)[C@@H]([C@@H](C)O)NC(=O)[C@@H](CC(C)C)N(C)C(=O)[C@@H]2CSC1=N2,"Procathepsin L (CTSL, Homo sapiens, UniProt P07711)",,,20 µM,relative to: solvent control,remaining activity,6%
CN1CCN(c2cc(-c3ccncc3)c(-c3ccc4ccccc4c3)nn2)CC1,"MRGPRD (Homo sapiens, UniProt Q8TDS7)","agonist, FLIPR",,12.5 µM,,activation,5.4%
CC(=O)[C@]1(O)Cc2c(O)c3c(c(O)c2[C@@H](O[C@H]2C[C@H](N)[C@H](O)[C@H](C)O2)C1)C(=O)c1ccccc1C3=O,"Beta-lactamase TEM (bla, Escherichia coli, UniProt P62593)",inhibitor,,,,Hill coefficient,1.4
Cl.Cn1c(=O)n(CCCCN2CCC3(CC2)OCc2ccccc23)c2ccccc21,"Slc6a3 (Rattus norvegicus, UniProt P23977)","dopamine uptake, inhibitor",rat striatal synaptosomes,added: [3H]dopamine,,Hill slope,-1.23
CC[C@H](C)[C@H](NC(=O)CNC(=O)[C@@H](N)CCCCN)C(=O)N[C@@H](CC(C)C)C(=O)N[C@@H](CCCCN)C(=O)N[C@@H](CCCNC(=N)N)C(=O)N[C@@H](CCC(=O)O)C(=O)N[C@@H](CCCCN)C(=O)N[C@@H](CCCNC(=N)N)C(=O)N[C@@H](CC(C)C)C(=O)N[C@@H](CCCNC(=N)N)C(=O)N[C@@H](CCCNC(=N)N)C(=O)N[C@@H](CCCCN)C(=O)N[C@@H](CC(N)=O)C(=O)N[C@H](C(=O)N[C@@H](Cc1c[nH]cn1)C(=O)N[C@@H](Cc1c[nH]c2ccccc12)C(=O)N1CCC[C@H]1C(=O)N[C@@H](CCC(=O)O)C(=O)N[C@@H](CCC(=O)O)C(=O)NCC(=O)N[C@@H](CCCCN)C(=O)N[C@@H](CC(C)C)C(=O)N[C@@H](CCCNC(=N)N)C(=O)N[C@@H](CCC(=O)O)C(=O)N[C@@H](Cc1ccc(O)cc1)C(=O)N[C@@H](Cc1ccccc1)C(=O)N[C@@H](Cc1ccc(O)cc1)C(=O)N[C@@H](Cc1ccccc1)C(=O)N[C@@H](CCC(=O)O)C(=O)N[C@@H](CC(C)C)C(=O)N[C@@H](CC(=O)O)C(=O)N[C@@H](CCC(=O)O)C(=O)N[C@@H](C)C(=O)N[C@@H](CCC(=O)O)C(=O)N[C@@H](CCCNC(=N)N)C(=O)N[C@H](C(=O)N[C@@H](CC(N)=O)C(=O)N[C@H](C(=O)O)C(C)C)C(C)C)C(C)C,"Serine/threonine-protein phosphatase PP1-gamma catalytic subunit (Homo sapiens, UniProt P36873)",ITC,,25 °C,,−TΔS,-22.9 ± 9.5 kcal/mol
CC(=O)N[C@@H](CSCCC=O)C(=O)O,"N-acyl-aromatic-L-amino acid amidohydrolase (carboxylate-forming) (Acy3, Mus musculus, UniProt Q91XE4)","substrate, fluorescamine",,without Co2+,,kcat,0.4 s⁻¹
C[N+](C)(C)[C@@H](Cc1c[nH]c(=S)[nH]1)C(=O)[O-],"Ergothioneine transport permease/ergothioneine binding protein EgtU, substrate-binding domain (egtU, Helicobacter pylori, UniProt B5Z7I3, S297F)",ITC,,"concentration not given, 30 °C, substrate-binding domain",,binding stoichiometry,1 ± 0.042
C[C@H]1CN(c2n[nH]c3nc(N[C@H]4CC[C@H](NS(=O)(=O)CCC(F)(F)F)CC4)ncc23)CCO1,"DAPK3 (Homo sapiens, UniProt O43293)","inhibitor, Kinobeads competition profiling",,20 µM,relative to: vehicle,relative abundance,1.11
O=C(O)Cc1c[nH]cn1,"SLC6A6 (Homo sapiens, UniProt P31641, Y138A)","binding, microscale thermophoresis",,"250 µM, room temperature, added: 50 nM labelled protein",higher = more binding,normalised MST signal,0.674
COc1cc(Nc2ncc(F)c(Nc3ccc4c(n3)NC(=O)C(C)(C)O4)n2)cc(OC)c1OC,"MAPK12 (Homo sapiens, UniProt P53778)",KINOMEscan,,"10 µM, p38-gamma",,inhibition,99%
CN(C)[C@@H](CCOc1cccc2ccccc12)c1ccccc1,ACHE,,biochemical,concentration not given,,activity class,inactive
CCCOc1ccccc1-c1nc2sc3c(c2c(=O)[nH]1)CCN(C)C3,PFF0160c E182D,"enzyme activity, DCIP colorimetric",,,relative to: E182D mutant over wild type,IC50 ratio,1.3
O=C(c1ccc(Cl)cc1)N1CCN2C(=O)N(OC(=O)N3CCOc4ccccc43)C(=O)C2C1 (stereo not shown),"Palmitoyl-protein thioesterase ABHD10, mitochondrial (Homo sapiens, UniProt Q9NUJ1)","enzyme activity, inhibitor, MS-based ABPP",SW-620 in situ,"10 µM, 2 h, 37 °C","relative to: compound over DMSO, lower = stronger inhibition",median ratio,1.05
O=C(Nc1cccnn1)N1CCC(=Cc2cccc(Oc3ccc(C(F)(F)F)cn3)c2)CC1,"KATP channel, hamster",binding,,"10 µM, added: [3H]glyburide",,inhibition,15%
Oc1ccc2ccc3cccc4ccc1c2c34,"Aryl hydrocarbon receptor (Danio rerio, UniProt Q9YGV3)","reporter gene, agonist, luciferase reporter",ZF-4,30000 µM,relative to: vehicle control,fold change,1.89
COc1ccc(-n2ccnc2SCC(=O)Nc2cc(C(F)(F)F)ccc2Cl)c(OC)c1,PFF0160c E182D,"enzyme activity, DCIP colorimetric",,,relative to: E182D mutant over wild type,IC50 ratio,2.4
CC12CCC(CC1)C(C)(C)O2,"1,8-cineole 2-endo-monooxygenase (cinA, Citrobacter braakii, UniProt Q8VQF6, Y81F)","NADPH consumption, substrate",,"200 µM, pH 7.8, room temperature, Y81F variant, 50 mM Tris, added: Fpr and Cdx",,kcat,2.77 ± 0.152 s⁻¹
Nc1nc2c(ncn2[C@@H]2O[C@H](COP(=O)(O)OP(=O)(O)OP(=O)(O)O)[C@@H](O)[C@H]2O)c(=O)[nH]1,"GTP 3',8-cyclase (moaA, Staphylococcus aureus, UniProt P69848, R17A)",isothermal titration calorimetry,,"concentration not given, 25 °C, R17A mutant, anaerobic",,binding enthalpy,-4.1 ± 0.3 kcal/mol
CCN1/C(=C/C(C)=O)Sc2ccc(F)cc21,"ADRA2B (Homo sapiens, UniProt P18089)",TGFα shedding,,,relative to: α2A over α2B,IC50 ratio,> 12
COc1ccc(N2C(=O)N(c3c(C)cccc3Cl)Cc3cnc(Nc4ccc(C5CCN(C)CC5)cc4OC)nc32)nc1,"NTRK3 (Homo sapiens, UniProt Q16288)","kinase activity, inhibitor",,"0.5 µM, kinase TRKC",,inhibition,-2%
[2H]c1c([2H])c([C@]2([2H])CCCN2C(=O)C(C)(C)Oc2ccc3cn[nH]c3c2)c([2H])c([2H])c1C([2H])([2H])[2H],"MET (Homo sapiens, UniProt P08581)",KINOMEscan,,1 µM,relative to: DMSO control,remaining binding,94%
CCN(CC)CCOCCOC(=O)C1(c2ccccc2)CCCC1,ACHE,,biochemical,concentration not given,,activity class,inactive
O=C(N[C@@H](Cc1ccccc1)C(=O)CCl)OCc1ccccc1,"Genome polyprotein, NS3 helicase domain (Hepatitis C virus genotype 1b, UniProt Q9WMX2)","DNA binding, inhibitor",hepatitis C virus,"100 µM, added: Cy5-dT15 DNA",,inhibition,0%
CC[C@@H](C)[C@@H](NC(=O)[C@@H](Cc1ccc(O)cc1)NC(=O)[C@H]1CCCN1C(=O)[C@@H](CCCNC(=N)N)NC(=O)[C@H](N)Cc1c[nH]cn1)C(=O)N[C@H](C)C(=O)N[C@H](Cc1c[nH]cn1)C(=O)N[C@H](CCCNC(=N)N)C(=O)N[C@H](CCCCNC(=O)c1cccc(S(=O)(=O)F)c1)C(=O)N[C@H](Cc1ccc(O)cc1)C(=O)N[C@H](CO)C(=O)N[C@H](Cc1ccccc1)C(N)=O,"Transferrin receptor protein 1 (Tfrc, Mus musculus, UniProt Q62351)",flow cytometry,B16,"24 h, unit not given",relative to: 0 h,surface expression,0.341
C#CCCCCNC(=O)CI,"Thioredoxin domain-containing protein 12 (TXNDC12, Homo sapiens, UniProt O95881)",mass spectrometry profiling,H460 cell lysate,"100 µM over 10 µM, UniProt O95881",relative to: high over low concentration,reactivity ratio,0.964
C[n+]1cn([C@@H]2O[C@H](COP(=O)([O-])OP(=O)(O)OP(=O)(O)OC[C@H]3O[C@@H](n4cnc5c(=O)[nH]c(N)nc54)[C@H](O)[C@@H]3O)[C@@H](O)[C@H]2O)c2nc(N)[nH]c(=O)c21,"m7GpppX diphosphatase (DCS1, Saccharomyces cerevisiae, UniProt Q06151, H268N/K126A)","binding, ITC",,,,ΔH second site,-21.3 kcal/mol
COc1cc(N)c(Cl)cc1C(=O)NC1CN2CCC1CC2 (stereo not shown),"PROKR2 (Homo sapiens, UniProt Q8NFJ6)","β-arrestin recruitment, TANGO luminescence, refers to: PK2",,concentration not given,relative to: basal luminescence,log2 fold change,0.073
